Measurements collected from several papers.
Every numbered part comes from another study and shows a few of its results, in no order.

Block 1
Target: Centromere-binding protein 1, full length, N-terminal tag (CBF1, Saccharomyces cerevisiae, UniProt P17106, residues 1-351)
Chain of UniProt P17106 (whole entry, looked up): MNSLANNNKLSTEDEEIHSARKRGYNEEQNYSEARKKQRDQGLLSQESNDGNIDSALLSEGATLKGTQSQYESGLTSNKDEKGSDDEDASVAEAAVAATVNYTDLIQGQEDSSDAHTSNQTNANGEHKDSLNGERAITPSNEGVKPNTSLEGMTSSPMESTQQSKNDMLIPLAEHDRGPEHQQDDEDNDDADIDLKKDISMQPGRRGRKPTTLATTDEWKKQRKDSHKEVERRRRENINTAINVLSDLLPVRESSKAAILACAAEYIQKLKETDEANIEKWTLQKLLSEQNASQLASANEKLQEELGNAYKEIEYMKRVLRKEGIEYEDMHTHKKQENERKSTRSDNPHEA
Method: protein-binding microarray
Form: double-stranded DNA, one strand shown
Matrix: in vitro
Tested at: 0.8 µM
Notes: whole 60-bp probe, no competitor
Reading: higher = stronger binding
| Sequence | fluorescence intensity |
| --- | --- |
| CTAAAAATAATAAATGGTCACGTTGGCATAAGTTTCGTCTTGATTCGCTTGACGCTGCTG | 4170 a.u. |
| GAACGAGTAGGCTATCACGTATGCATGGAACGTTAGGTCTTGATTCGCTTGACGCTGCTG | 563 a.u. |
| CTAATATATATCTACTAGATCACGTTGCAAGACTTCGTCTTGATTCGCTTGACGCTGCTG | 2260 a.u. |
| GAAAGGGATCCACGTCACGCCGTGCGCGGAACGTAGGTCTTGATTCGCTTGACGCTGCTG | 997 a.u. |
| CTAGGACCCATACATCAGGCACTTACCCCCAGGTTCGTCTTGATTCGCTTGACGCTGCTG | 480 a.u. |
| CTACAAAGGAGGGAGGTCGTGATAACAAACTGATTCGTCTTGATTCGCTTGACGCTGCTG | 641 a.u. |
| CTACTAAACGGTTGTCAGGAGAAAAATTGAATGTTCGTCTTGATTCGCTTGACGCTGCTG | 551 a.u. |
| GAACACTTTTTATGCACGTGCATCGTACAATTATAGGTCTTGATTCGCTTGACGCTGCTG | 10900 a.u. |
| GAACTACGGATGCCTCGCGTCACCATCCGCTGGTAGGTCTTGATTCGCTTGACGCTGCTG | 482 a.u. |
| CCTAACTACTATAGTGATGTTACATAGCTTCGTACAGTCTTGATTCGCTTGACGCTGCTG | 500 a.u. |
| CTAAAAGGGAAAAGCCACATGCGGAAGAATTTTTTCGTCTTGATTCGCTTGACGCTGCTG | 573 a.u. |
| CCTAACTACTATAAGTGCGTGAGATAGCTTCGTACAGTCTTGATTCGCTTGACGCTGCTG | 528 a.u. |
| CTAGTTAGTTTTTCTGCTGATATATATCTTTCTTTCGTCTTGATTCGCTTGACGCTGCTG | 521 a.u. |
| CTAAGAGTCCGAGCATGTCTGATGAGGTCCTCTTTCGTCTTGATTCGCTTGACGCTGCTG | 499 a.u. |
| GAACTCTTGTCCCATGTCAGGTGTAAAACTGACTAGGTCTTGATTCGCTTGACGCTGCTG | 1090 a.u. |
| CTAGCTTAGCATCCACACGTCACAATCTCGGGTTTCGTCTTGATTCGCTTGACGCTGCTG | 531 a.u. |
| CTACTCCCAAATTCCCATCTGATGAACTGTTAGTTCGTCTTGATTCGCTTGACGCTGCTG | 484 a.u. |
| GAACTAGCCAATCTCCACGAGATTTATCTGGAATAGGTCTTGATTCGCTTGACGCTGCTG | 503 a.u. |
| GAAAGCACATAGACGCACGATACAAATACTAGTTAGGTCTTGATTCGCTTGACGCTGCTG | 545 a.u. |

Block 2
Target: Histone acetyltransferase KAT6A, both winged helices, GST fusion (KAT6A, Homo sapiens, UniProt Q92794, residues 1-181)
Method: protein binding microarray
Form: double-stranded DNA, one strand shown
Matrix: in vitro
Tested at: not given
Notes: 8-mer, flanks averaged, mean of 2 arrays, mostly near background
Baseline: not given
Reading: higher = stronger binding
Residues (chain): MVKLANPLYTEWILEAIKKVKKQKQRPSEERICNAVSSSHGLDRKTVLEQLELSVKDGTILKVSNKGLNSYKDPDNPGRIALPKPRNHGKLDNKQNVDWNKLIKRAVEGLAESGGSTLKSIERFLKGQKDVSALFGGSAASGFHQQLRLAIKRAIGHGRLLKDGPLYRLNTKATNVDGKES
| Sequence | E-score |
| --- | --- |
| AACATACA | -0.0513 |
| ATTCGCGA | 0.0817 |
| ACCCCTGG | -0.233 |
| CAAGCGTC | 0.145 |
| AACCACGA | -0.0447 |
| GCGTCACC | 0.156 |
| GGTTATCA | -0.168 |
| ATCTCAGC | 0.0341 |
| AGTTGGAG | -0.211 |
| GCCCAGTA | -0.195 |
| CAATCATG | -0.118 |
| AGCGGCGA | 0.249 |
| ACGCCCAC | -0.0869 |
| AGCGTGCG | 0.282 |
| ATTTCTGG | -0.159 |
| CTCTGCAA | -0.122 |
| CTTGGTCA | -0.244 |
| CGTGCAAC | 0.0761 |
| CTCGCAAC | -0.0067 |
| CTTGGACA | -0.0993 |

Block 3
Target: RNA binding protein fox-1 homolog 2, RRM domain, GST-SBP tag (RBFOX2, Homo sapiens, UniProt O43251-10, residues 100-194)
Method: RNA Bind-n-Seq
Form: RNA
Matrix: in vitro
Tested at: 365 nM
Notes: natural RNA segment, single round, ends assumed
Baseline: no-protein control
Reading: higher = stronger binding
Residues (chain): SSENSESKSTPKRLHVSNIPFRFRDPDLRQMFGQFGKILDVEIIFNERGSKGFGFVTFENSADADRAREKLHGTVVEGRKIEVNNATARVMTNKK
| Sequence | RBNS enrichment (R) |
| --- | --- |
| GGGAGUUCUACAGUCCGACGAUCGAAGCCCUGGCUGCCAUCCCAGGAGCCCUGGCUGUGAACCUGGGAGUCCUAGGUAUGAACCCAAAAGCCCUGGGUACGGUUCAAAGAGCCCCGAAUUUGAAUCUCAAAGUUGGAAUUCUCGGGUGCCAA | 0.358 |
| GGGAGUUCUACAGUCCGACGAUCUCUUAGGGCUCACACUCGCCUUUUGGCGCGUGGUGGGUUUUUGGUAGUGCAGAAAGAAUCCAGGGAUGGGAGGGGAAGGGACGGAUGGGUGCUCAAUUGCUGCUCACGUCUGGAAUUCUCGGGUGCCAA | 0.528 |
| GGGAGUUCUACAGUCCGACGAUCUAGGCUUGCUAAUUGAUAACUGCAGCAGUUUGUGUUUACUCCAGUUCAUCAGCUUAGGUCAUUUGAAAGAUAUAAGAGCUUAAGGCAAGAAAGAAAUAACAUGGAAUUCUUGGAAUUCUCGGGUGCCAA | 1.21 |
| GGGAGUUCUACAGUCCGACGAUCGCAGAAGGAAGGCGGAGGGUGGAGGCCUUGCCUUUCCAUAUUCACCUAGGUCUUGUCUUUCAACUUGUUGGUAGAAGUUACAAAUUAUUCUCAAAACUGUCUGUCUCAUCUGGAAUUCUCGGGUGCCAA | 0.531 |
| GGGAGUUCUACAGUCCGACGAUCAUUGAACAAAGACUACUAAUGACUUUGUUUGAAUUAUCCACAUGAAAAUAAAGAGCCAUAGUUUCAGCCUUGCUGUCUUCGUGUCUUACCCCUUCGUGGGGCUACACAUUUGGAAUUCUCGGGUGCCAA | 0.28 |
| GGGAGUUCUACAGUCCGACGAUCUUCUGGAAAGGUAGGUUUGCUGUGGAGGAAAUAAUGUACUAGAUCAUUGUCACAGAAAAACCAACUAUGAUUUAUGGUUGUGUUUUCAGAAUUCAACAUUAAAGAUUAAUUGGAAUUCUCGGGUGCCAA | 0.617 |
| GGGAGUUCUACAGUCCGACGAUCUUAAUGGGAUUUCAUGGGGUUUGGUUGUGCUGAUAGGGUAAGGGGAGGCUGCUUUCUGCCCUUCUCCCCACUCCCAUCUGAUUUACUUAAUUCAGUCUCAGCUGCUGAAAUGGAAUUCUCGGGUGCCAA | 0.324 |
| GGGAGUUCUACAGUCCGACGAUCAGCCUGAUUUUGUUCCUGUUUUUCAUCUACGAGGGUAAAAGCAUACCCCGGGAAAUCCCUGUGGCCAGUUUGAACACCCCUGCUGUAACCUUCCCUCUGUUCCAUGGUCUUGGAAUUCUCGGGUGCCAA | 0.59 |

Block 4
Target: TAR DNA-binding protein 43, full length, His tag (TARDBP, Homo sapiens, UniProt Q13148, residues 1-414)
Method: RNA Bind-n-Seq
Form: RNA
Matrix: in vitro
Tested at: 20 nM
Notes: 6-mer, flanks averaged, single round
With: 150 mM KCl
Baseline: input library
Reading: higher = stronger binding
| Sequence | 6-mer enrichment (R) |
| --- | --- |
| UUGGUC | 0.68 |
| GGUACU | 0.877 |
| CGACUU | 0.578 |
| AUGUGG | 1.66 |
| ACUCUU | 0.566 |
| CCUCAU | 0.584 |
| GUGCGG | 3.47 |
| GAGAUG | 1.46 |
| UGGUCG | 1.23 |
| CAUGAC | 0.667 |
| UACGGC | 0.84 |
| AUGCUU | 0.653 |
| GGCGUG | 3.29 |
| CCUAGC | 0.653 |
| CACGUC | 0.64 |
| CAAUGC | 0.666 |
| AUGUGA | 0.935 |

Block 5
Target: Interferon regulatory factor 3, full length, phosphomimetic (IRF3, Homo sapiens, UniProt Q14653, residues 1-427, S386D/S396D/S398D/S402D/T404D/S405D)
Method: protein-binding microarray
Form: double-stranded DNA, one strand shown
Matrix: in vitro
Tested at: 2540 nM top
Notes: 60-bp whole probe
With: salmon DNA 0.4 mg/ml
Baseline: random background probes
Reading: higher = stronger binding
Shared flanks, not repeated: GCCTAGCAC … GTCTTGATTCGCTTGACGCTGCTG
Residues (chain): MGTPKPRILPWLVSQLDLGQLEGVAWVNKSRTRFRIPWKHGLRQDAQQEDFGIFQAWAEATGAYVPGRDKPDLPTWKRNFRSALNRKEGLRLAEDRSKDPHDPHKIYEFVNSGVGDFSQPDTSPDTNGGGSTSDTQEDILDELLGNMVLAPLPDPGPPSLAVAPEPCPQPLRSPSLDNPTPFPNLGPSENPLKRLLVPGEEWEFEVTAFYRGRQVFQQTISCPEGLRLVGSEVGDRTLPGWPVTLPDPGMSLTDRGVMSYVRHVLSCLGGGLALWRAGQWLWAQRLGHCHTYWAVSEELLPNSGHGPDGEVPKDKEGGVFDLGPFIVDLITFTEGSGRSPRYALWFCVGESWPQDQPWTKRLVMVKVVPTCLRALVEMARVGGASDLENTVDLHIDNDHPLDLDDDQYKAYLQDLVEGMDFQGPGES
| Sequence | fitted relative affinity |
| --- | --- |
| GATGTTTTTCATTTTTTTTCGTGCTAG | 1.53 z-score |
| TCACTTCTTGAACTCTTACTGTGCTAG | 1.45 z-score |
| TTACGACTGGGACTGGGTTAGTGCTAG | -0.833 z-score |
| TTAGATCTCCGTCTCGATTAGTGCTAG | 1.09 z-score |
| TCATATATACTATATGCAACTGTGCTA | 0.576 z-score |
| TCAGTTCTAAATATCTTACTGTGCTAG | 1.35 z-score |
| CTCTACCTCGTCATAGTAACGTGCTAG | 0.16 z-score |
| TTATATTTCAGTTCCGATTAGTGCTAG | 3.27 z-score |
| TTAGGACTGGACAATCGGTTAGTGCTA | -0.532 z-score |
| GGGCTTTCCCAGCCTGGGGCTGTGCTA | 0.307 z-score |
| GACGGTTTCGGACTGGTGACGTGCTAG | 4.59 z-score |
| TTAGGACCGCTTTTCCTTTAGTGCTAG | 1.33 z-score |
| TTAAATATCGGGTTTCGATTAGTGCTA | 2.32 z-score |
| TCATTATTTACTCTCTAACTGTGCTAG | 0.695 z-score |
| TTAGGTCTCCTTAGCCTTTAGTGCTAG | 0.48 z-score |
| CCGAAAATGCCCTTTTGGTGAGTGCTA | 1.43 z-score |
| TAAGGACTGCTTCTCCTTTAGTGCTAG | 0.0463 z-score |
| TTTTTTTTTTTTTTTGGAATGTGCTAG | 1.6 z-score |
| GACGGACTGCTTCTCCCGACGTGCTAG | -0.198 z-score |

Some of these lines once more (block 4):
| Sequence | 6-mer enrichment (R) |
| --- | --- |
| GUGCGG | 3.47 |
| GAGAUG | 1.46 |
| UGGUCG | 1.23 |
| CAUGAC | 0.667 |
| UACGGC | 0.84 |
